Experimental data collected from several papers.
Protocols differ between the studies behind these lines. “And” joins repeats or separate records; there may be more than shown. ± gives the spread as reported.
BEST1: BEST1 (Homo sapiens, UniProt O76090)
Voltage-dependent P/Q-type calcium channel subunit alpha-1A: Voltage-dependent P/Q-type calcium channel subunit alpha-1A (Homo sapiens, UniProt O00555)
UCHL1: Ubiquitin carboxyl-terminal hydrolase isozyme L1 (UCHL1, Homo sapiens, UniProt P09936)
ADRA2C: Alpha-2C adrenergic receptor (ADRA2C, Homo sapiens, UniProt P18825)
T1: RNA aptamer; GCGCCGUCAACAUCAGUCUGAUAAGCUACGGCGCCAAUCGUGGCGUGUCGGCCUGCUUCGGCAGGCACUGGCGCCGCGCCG

For C=CC(=O)Nc1cccc(Oc2nc(Nc3ccc(N4CCN(C)CC4)cc3)nc3ccoc23)c1, the kinact was 0.00593 s⁻¹ (Tyrosine-protein kinase BTK, non-activated (BTK, Homo sapiens, UniProt Q06187); covalent inhibitor).
Nc1nc2c(ncn2[C@@H]2O[C@H](COP(=O)(O)O)[C@@H](O)[C@H]2O)c(=O)[nH]1: “ΔH of binding” -5.8 kcal/mol and -7 kcal/mol and -5.3 kcal/mol (GUK1 (Homo sapiens, UniProt Q16774); ITC; concentration not given, together with: 150 mM NaCl).
O=C(O)C1=CCNCC1 has a current density of 84.4 pA/pF and 181 pA/pF and 96.8 pA/pF and 145 pA/pF and 59.5 pA/pF and 160 pA/pF (BEST1; whole-cell patch clamp; HEK293 transiently expressing channel; concentration not given, membrane potential 100 mV).
The Hill coefficient of CCCC[C@H](NC(=O)[C@H](C)c1c(C)[nH]c2ccc(O)cc12)c1ncc(-c2cc3ccccc3nc2OC)[nH]1 is reported as 0.9 (PTGER1 (Homo sapiens, UniProt P34995)).
Oc1ccccc1-c1n[nH]cc1-c1ccnc2ccccc12 — result for “log2 fold change”: 0.08 (Serine/threonine-protein kinase BUR1 (CRK1, Candida albicans, UniProt Q9Y7W4); kinase binding, MIB/MS competition; Candida albicans lysate; 10 µM; relative to: DMSO, negative = stronger binding).
The inhibition of CCn1cc(C(=O)O)c(=O)c2cc(F)c(N3CCNCC3)nc21 is reported as 1% (Voltage-dependent P/Q-type calcium channel subunit alpha-1A; ion current, antagonist; HEK293; 10 µM).
O=C(O)c1ccc(O)cc1 has a current density of -23.5 pA/pF and -12 pA/pF and -13.9 pA/pF and -20.4 pA/pF and -17.7 pA/pF and -25 pA/pF and -23.8 pA/pF (BEST1; whole-cell patch clamp; HEK293 transiently expressing channel; concentration not given, membrane potential -60 mV).
CC(=O)C(=O)O has a Km of 53 to 80 µM (dxs (Escherichia coli, UniProt P77488); substrate, IspC-coupled DXP formation).
The remaining activity of O=S(=O)(NC1(CC(F)(F)F)CC1)c1cccc(Cl)c1O is reported as 179% (malate dehydrogenase; enzyme activity, inhibitor; 200 µM, pH 7.0, 1% DMSO, aggregation counter-screen).
For CC[C@@H]1[C@H](F)C(=O)N[C@@H]1COc1nccc2cc(C(N)=O)c(OC)cc12, the inhibition was -1.4% (MAP3K4 (Homo sapiens, UniProt Q9Y6R4); ATP-site probe binding, ActivX profiling; THP-1 cell lysate; 0.2 mM, Lys2 site).
With CCC1(O)CCCN(C(=O)c2ccc(-c3ccc(F)c(NC(=O)CCl)c3)cc2)C1 (stereo not drawn) the protein adduct was 76.5% (DNA dC->dU-editing enzyme APOBEC-3B, C-terminal domain (Homo sapiens, UniProt Q9UH17); covalent modifier, intact protein mass spectrometry, refers to: adduct +25721 Da; 250 µM, 3 h, 10-fold molar excess).
The decatenated DNA of O=c1nc(SCc2cc(F)cc(C(F)(F)F)c2)nc(SCc2ccc3nc(Cl)ccc3c2)[nH]1 is reported as 1.19% (TOP2B (Homo sapiens, UniProt Q02880); decatenation; 125 µM, replicate 2).
With Cc1cc(-c2ccnc3[nH]cc(F)c23)cc(F)c1[C@@]1(O)[C@H](C)CN(C(=O)CN)C[C@@H]1C the inhibition was 88.5% (LATS2 (Homo sapiens, UniProt Q9NRM7); ATP probe binding, KiNativ, refers to: Lys2 site; HEK293T cell lysate; 1 µM).
C=CC(=O)N1CCC(COCC(=O)N2CCN(c3nc(-c4cnc(N)nc4C(F)F)nc(N4CCOC[C@@H]4C)n3)CC2)CC1 gave a remaining binding of 71% (HASPIN (Homo sapiens, UniProt Q8TF76); KINOMEscan; 1 µM).
O=c1ccc2c(OCCCCOc3ccccc3)c3ccoc3cc2o1 gave a Hill coefficient of 1.8 (Kcna3 (Mus musculus, UniProt P16390); potassium current, blocker; L929).
With Cc1cc(OCC(=O)NCCNC(=O)c2cccc(COc3ccccc3C(N)=O)c2)c2c3c(c(=O)oc2c1)CCC3 the ligand efficiency was 0.38 (TNKS (Homo sapiens, UniProt O95271); enzyme activity, inhibitor).
With NS(=O)(=O)c1cccc(N2C(=O)C=CC2=O)c1 the labelling was 9.44% (UCHL1; covalent, intact protein LC-MS; 12.5 µM).
Nc1ncnc2c1ncn2[C@@H]1O[C@H](COP(=O)(O)CP(=O)(O)OP(=O)(O)O)[C@@H](O)[C@H]1O has a calcium influx of 61.6% and 66.9% and 53.2% (P2X purinoceptor 1 (P2RX1, Homo sapiens, UniProt P51575, R139P); calcium influx; 1 µM; relative to: ionomycin response).
For CCCN(CCC)CCc1cccc2c1CC(=O)N2, the IC30 was > 30 µM (Voltage-dependent P/Q-type calcium channel subunit alpha-1A; ion current, antagonist, automated patch clamp).
The ΔTm of COc1cc(-c2cc(C(C)=O)n3ccccc23)c(OC)cc1Cn1ccnc1 is reported as 4.1 °C (Bromodomain-containing protein 4, BD2 (BRD4, Homo sapiens, UniProt O60885)).
The selectivity ratio of Cc1cc(Oc2ncccc2CN2CCN(c3cccc4ccccc34)CC2)ccc1-c1c(C)c(=O)[nH]c(=O)n1C is reported as 13 (ADRA2C; binding, radioligand binding; together with: [3H]rauwolscine; relative to: Ki alpha2A over Ki alpha2C).
For CN(CCO)c1cc2sc(/C=C(\C#N)c3ccc(C#N)cc3)cc2s1, binding read “no binding” (T1, RNA aptamer; fluorescence activation, native PAGE).
With COc1cc(C=O)cc(Cl)c1OS(=O)(=O)c1ccc(NC(C)=O)cc1 the labelling was 11.9% (UCHL1; covalent, intact protein LC-MS; 12.5 µM).
CC(=C/C(=O)O)/C=C/C=C(\C)C1C=C2C(C)(C)CCCC2(C)O1 (stereo not drawn) — result for “plasma membrane localization”: 0.6 (Rhodopsin (RHO, Homo sapiens, UniProt P08100, T17M); immunostaining, refers to: opsin; COS-7 transfected; 10.00 µM, unit not given; relative to: surface over total stained cells).
Cc1cc(Oc2ncccc2CN2CCN(c3ccccc3O)CC2)ccc1-c1c(C)c(=O)[nH]c(=O)n1C gave a selectivity ratio of 9 (ADRA2C; binding, radioligand binding; together with: [3H]rauwolscine; relative to: Ki alpha2B over Ki alpha2C).
The binding enthalpy of CSCC[C@H](NC(C)=O)C(=O)N[C@@H](CC(=O)O)C(=O)N1CCC[C@H]1C(=O)N1CCC[C@H]1C(=O)N[C@@H](CC(C)C)C(=O)N[C@@H](Cc1c[nH]cn1)C(=O)N[C@@H](CO)C(=O)N[C@H](C(=O)N[C@@H](C)C(N)=O)[C@@H](C)OP(=O)(O)O is reported as -15.8 ± 0.11 kcal/mol (PLK1 (Homo sapiens, UniProt P53350); polo-box domain binding, isothermal titration calorimetry; concentration not given, 25 °C).
For O=C(CCl)NC(=O)Nc1ccccc1, the labelling was 13.5% (UCHL1; covalent, intact protein LC-MS; 12.5 µM).
For CN1C(N)=N[C@](C)(c2cc(NC(=O)c3ccc(F)cn3)ccc2F)CS1(=O)=O, the inhibition was 13% (Voltage-dependent P/Q-type calcium channel subunit alpha-1A; ion current, antagonist; 3 µM).
For CC1CCCCC1NC(=O)C(C#N)=Cc1cccc(O)c1 (stereo not drawn), the labelling was 19.4% (UCHL1; covalent, intact protein LC-MS; 12.5 µM).
For CCc1ccc(S(=O)(=O)n2nc(SCc3ccc(Cl)cc3)nc2N)cc1, “probe labeling increase” read 1.9 fold (Lysophospholipase-like protein 1 (Mus musculus, UniProt Q3UFF7); enzyme activity, activator, gel-based ABPP; purified protein; concentration not given, together with: FP-rhodamine; relative to: DMSO).
With CC(=O)c1cccc(S(=O)(=O)N2CCN(C(=O)CCl)CC2)c1 the labelling was 13.1% (UCHL1; covalent, intact protein LC-MS; 12.5 µM).
CC[C@H](C)[C@H](NC(=O)[C@H](CCCCN)NC(=O)[C@H](CCCNC(=N)N)NC(=O)[C@H](CC(C)C)NC(=O)[C@H](CCC(N)=O)NC(=O)[C@H](C)NC(=O)[C@H](C)NC(=O)[C@H](Cc1ccccc1)NC(=O)[C@H](CCC(=O)O)NC(=O)[C@@H]1CCCN1C(=O)[C@@H]1CCCN1C(=O)[C@H](CC(C)C)NC(=O)[C@H](CCC(=O)O)NC(=O)[C@H](C)NC(C)=O)C(=O)NCC(=O)N[C@@H](CC(=O)O)C(=O)N[C@@H](CCCCN)C(=O)N[C@H](C(=O)N[C@@H](Cc1ccc(O)cc1)C(=O)N[C@@H](CS)C(N)=O)C(C)C has a Ki of ~9.9 µM (BCL2L2 (Homo sapiens, UniProt Q92843); fluorescence polarisation competition; 2 h, 25 °C, incomplete curve, together with: 25 nM fluorescein-Bim).
The remaining activity of CCOC(=O)C1(NS(=O)(=O)c2cc(Cl)cc(Cl)c2O)CC2(CCC2)C1 is reported as 104% (malate dehydrogenase; enzyme activity, inhibitor; 200 µM, pH 7.0, 1% DMSO, aggregation counter-screen).
For O=C(CCl)NC(c1ccc(F)c(Cl)c1)C(F)(F)F (stereo not drawn), the labelling was 9.28% (UCHL1; covalent, intact protein LC-MS; 12.5 µM).
The remaining activity of O=S(=O)(NC1CCSc2c(F)cccc21)c1c(O)cc(F)c(F)c1F (stereo not drawn) is reported as 122% (malate dehydrogenase; enzyme activity, inhibitor; 200 µM, pH 7.0, 1% DMSO, aggregation counter-screen).
The ΔG of CC(=O)N[C@H](C(=O)N1C[C@H](O)C[C@H]1C(=O)NCc1ccc(-c2scnc2C)cc1)C(C)(C)SCCCCCCNC(=O)C[C@@H]1N=C(c2ccc(Cl)cc2)c2c(sc(C)c2C)-n2c(C)nnc21 is reported as -9.7 ± 0.05 kcal/mol (BRD2/VHL, BD2; with VCB (Homo sapiens, UniProt P25440+P40337); ternary complex binding, ITC; 25 °C, together with: VHL-ElonginB-ElonginC titrated into compound:PROTAC:Brd2^BD2 complex).
[H]/N=C(/N)NCC(=O)O: “normalised MST signal” -0.0119 (SLC6A6 (Homo sapiens, UniProt P31641, G62A); binding, microscale thermophoresis; 7.81 µM, room temperature, together with: 50 nM labelled protein; higher = more binding).
The activation of CCC(=O)NS(=O)(=O)c1ccc(-c2c(-c3ccccc3)noc2C)cc1 is reported as 0.38 fold (HNF4A (Homo sapiens, UniProt P41235); reporter gene, Gal4 hybrid reporter; 50 µM; relative to: vehicle).
O=C1CC2(CCCC2)CC(=O)N1CCCCN1CCN(c2ncccn2)CC1 has an IC30 of > 30 µM (Voltage-dependent P/Q-type calcium channel subunit alpha-1A; ion current, antagonist, automated patch clamp).
For O=S(=O)(NCc1ccnn1C1CC1(F)F)c1cccc(Cl)c1O (stereo not drawn), the remaining activity was 122% (malate dehydrogenase; enzyme activity, inhibitor; 200 µM, pH 7.0, 1% DMSO, aggregation counter-screen).
Cc1cc2c(cc1N1C(=O)c3cccc4c(Cl)ccc(c34)C1=O)n(C)c(=O)n2C has a delta Tm of 0.8 °C (Bromodomain-containing protein 4, BD1 (BRD4, Homo sapiens, UniProt O60885); 10 µM).
With COc1cc(C)[nH]c(=O)c1CN1CCc2c(Cl)cc([C@H](OC)C3COC3)c(Cl)c2C1=O the residence time was 780 min (EZH2 (Homo sapiens, UniProt Q15910)).
